Measured values of several laboratories.
Parts stem from different laboratories: compare values within a part only.

Block 1
Target: Hepatocyte nuclear factor 3-alpha (Foxa1, Mus musculus, UniProt P35582, residues 1-468, full length assumed)
Technique: EMSA with sequencing
Molecule type: double-stranded DNA, one strand shown
Matrix: in vitro
Concentration: 10 and 20 nM
Setting: whole designed probe, mean of two concentrations, ends assumed
Baseline: negative control set to 0
Reading: higher = stronger binding
Endpoint: normalised bound fraction
Constant ends, left off below: GTGAGCGGTGCCCATTGATGGGGAAC … TTTCACTGGGATCGTGGGGAC
Target sequence (chain): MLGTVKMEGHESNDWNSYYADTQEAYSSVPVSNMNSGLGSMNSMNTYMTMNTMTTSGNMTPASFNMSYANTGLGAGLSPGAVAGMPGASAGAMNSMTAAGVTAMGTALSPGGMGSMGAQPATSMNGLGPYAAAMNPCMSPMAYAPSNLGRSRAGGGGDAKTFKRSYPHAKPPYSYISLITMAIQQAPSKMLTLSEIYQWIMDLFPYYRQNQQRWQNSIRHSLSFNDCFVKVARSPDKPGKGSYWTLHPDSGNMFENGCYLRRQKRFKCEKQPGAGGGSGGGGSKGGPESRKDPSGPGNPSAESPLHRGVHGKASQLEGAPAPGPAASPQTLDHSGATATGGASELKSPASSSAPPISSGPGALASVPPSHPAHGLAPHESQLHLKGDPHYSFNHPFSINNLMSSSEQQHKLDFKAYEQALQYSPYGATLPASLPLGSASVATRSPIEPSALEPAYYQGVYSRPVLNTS
Strand = AGTTTATAGATAGATGGATAAATATTTTTTACATGGAGAAGGCGTAATAGGAAATATCATACTGATTATGAAGTACTTTCAAAACATTGACAATGTAAACAAATATTAATTAATAGGAGACAAGCATATTAAATGAATCCAGTATAATTGGTGTTACACTGGTGCAAAGTATTGAATGTTTGCTTCCCCACCC; result = 0.502 ratio
Strand = ACAAAGTGCTCCAAATGTCCAGTTCCACATACTACAAAATCAGTGTTTGAAACCTGCTCTATGAAAGTGAATGTTCAACTCTGTGTCTTGAATGCAATCTTCCCAAAGAAGTTTCTGATAATGCTTCTGTCTAGATTTTATATGAAGATATTCCCGTTTCCAGCGAAATCCACCAAGCTATCCAAATATCCAC; result = -0.0376 ratio
Strand = AGACAAAAAATGTAGTTGTTCAACAGCTCAGGGAAGAAAGCCTGAGCTTGCCACAGGAGGAGACAGGGCTAAGGCTGGGGAGTTGGGGGGAGTGTAATTTAAGTAGAGGACTGGGCAGAGCTACAAGAAATATTTAGCATTCCTGGCTTCCCACAAAGGGTAGGTCAAGGAGAGGGAATGAGCAGTTGGGATG; result = -0.0482 ratio
Strand = ATTTGACTGACATTTGACATTACAGGATTCGCCCTGCTGTCATCCCTGTGCTAGGCACAATGTTTGCAACCCTTCCTGTGTTGTTATCTTGCTGTTTACATTGAGTCCCAGATCTGGCTGAAGGGGTAAAAATCCTTTGTTCCATCTGTGTAAACATACATGACCTGATCTCTGCCCACTGACAACATCCAAA; result = 0.457 ratio
Strand = GACAAACACATCTAGCTCCTAGCATGACTTCAGTGTGAAAAGGCTGGGCTTGGGAGAGCAGCAGGTAGACATGCCTATTAACATTGTGCTGCCATGTTTACTTTTTTTTTGTTTACTTAAATCATGGACAGAAAGCCAAGTGTATAAGTGAAAACCCAAGGGACAATGACATGGGGTAGACTGCAGACCAAGA; result = 0.528 ratio

Block 2
Target: Phosphate system positive regulatory protein PHO4, full length, GST-tagged (PHO4, Saccharomyces cerevisiae, UniProt P07270, residues 1-312)
Technique: competition protein-binding microarray
Molecule type: double-stranded DNA, one strand shown
Matrix: in vitro
Concentration: 2 µM
Setting: whole 60-bp probe, lowest competitor level
Added: Cbf1 competitor, 0.05 µM
Reading: higher = stronger binding
Endpoint: fluorescence intensity
Constant ends, left off below: … GTCTTGATTCGCTTGACGCTGCTG
Residues (chain): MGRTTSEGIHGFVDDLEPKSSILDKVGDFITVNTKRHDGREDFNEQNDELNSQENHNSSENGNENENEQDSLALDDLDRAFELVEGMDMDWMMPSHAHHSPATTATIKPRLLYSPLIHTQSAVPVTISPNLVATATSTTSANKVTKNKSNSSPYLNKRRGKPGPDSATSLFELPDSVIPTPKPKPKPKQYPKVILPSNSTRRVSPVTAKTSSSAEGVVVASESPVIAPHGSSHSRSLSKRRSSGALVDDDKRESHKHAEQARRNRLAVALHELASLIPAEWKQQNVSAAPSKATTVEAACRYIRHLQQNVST
Strand = GACGACCGTACTTTGCACGTGGCCGCAGACACATTT; result = 17100 a.u.
Strand = TTTCCAACCTTCTGGCACGATAGTCTATGTCAAAAT; result = 6600 a.u.
Strand = CGGGGTTAAGTTTGGGTAGTGGGTGGCTTGCAGCAG; result = 4780 a.u.
Strand = CGGGGTTAAGTTTGGCGGGTGGGTGGCTTGCAGCAG; result = 5130 a.u.
Strand = CGGGGTTAAGTTTGCGTAGTGGGTGGCTTGCAGCAG; result = 4660 a.u.
Strand = AAATTACTAAGTTTTCACGTGGGCTACCCCGTATGA; result = 15900 a.u.
Strand = TGCGCAACAACTTGCACAGTGGGTGTATGTCTAGAA; result = 4500 a.u.
Strand = AATCGTTAACACCGTCACCTGTCATTGTGCAGAACT; result = 5280 a.u.
Strand = AGGCCAATGCTGCTAAGCGTGCTAAAGCTAAGGCTC; result = 7830 a.u.
Strand = CTAACGAAGGTTTGTACAGTGGGTGACAAGCCAAGT; result = 3680 a.u.
Strand = TTCTTTTCCCTTTAACATGTGGAGCATAGCAGGCTC; result = 8590 a.u.
Strand = GATTAGTTTCAGGTACATGTGTCAAATGAGGATAAA; result = 8460 a.u.
Strand = GTCTTGTCTCATTGGTTGGTGGGTGTCCCCACTTCA; result = 5040 a.u.
Strand = AGGGCCGGTTGCCGTCACGTGCGGAAAACTATCTCC; result = 14300 a.u.
Strand = GTCTTGTCTCATTGGTACGTGGGTGTCCCCACTTCA; result = 7000 a.u.
Strand = CGTCCTAGCGATTGAAAAGTGGGTGCCATGAGGAAG; result = 6470 a.u.
Strand = TAGCCCTGTTACTGTCATGTTAGTTATTATCGTTCT; result = 4150 a.u.
Strand = TTTGGGAAGACTTAGCACGTTATATACTATTAATGA; result = 9240 a.u.
Strand = CCGGAATACCGAAAGCACGGGCCAGACCGAAATCGA; result = 8160 a.u.

Block 3
Target: RNA binding protein fox-1 homolog 2, RRM domain, GST-SBP tag (RBFOX2, Homo sapiens, UniProt O43251-10, residues 100-194)
Technique: RNA Bind-n-Seq
Molecule type: RNA
Matrix: in vitro
Concentration: 365 nM
Setting: natural RNA segment, single round, ends assumed
Baseline: no-protein control
Reading: higher = stronger binding
Endpoint: RBNS enrichment (R)
Constant ends, left off below: GGGAGUUCUACAGUCCGACGAUC … UGGAAUUCUCGGGUGCCAA
Target sequence (chain): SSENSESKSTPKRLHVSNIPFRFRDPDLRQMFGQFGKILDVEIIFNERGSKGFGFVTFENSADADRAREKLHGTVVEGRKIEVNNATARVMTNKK
Strand = CUGCAGCACAGAGGGAAAUCUGCCGGGCAUCAAAUAUCUGUGUCCCCCAUAAUCCUAAUAAUAAAUCUAUUUUUCAUUCAGUUGUUAAACGUUGGAUUUUCGUACACUUC; result = 1.48
Strand = UCCUCCGCGGGAGGUGGCCCUCAGCUGGGACAGUGGGGACCCAGGCUUCUCCUCAGAGCCAGGCCCUGACUUGCCUUCUCCCACCCCGUGGACCGCUUCCCCUGCCUUCU; result = 0.34
Strand = CUCCAUGACCCUCUGAGUGAUGGUUCUUUUGCGCCCUGUAGCUGUUCUAGGAUAGGAUGCAUGUUAGUAAGUUACGUAUGCAAGUCUGAGCGCGCGCGGCUGAUGGACAU; result = 1.12
Strand = AGUCACUCUCCCUCUCUGGGCAUGUCUGCUACAAAUGGACAAGAUUAUUUCAGAGGUCACUGAAGACUGUGAUUACAUGCACCUGCCUUAGAAGGUAGGAUUUUCUUCCC; result = 0.378
Strand = AAUAAAUCUGGACAAUGCCGUUAGCGAAGAGCCCUUCCUGGUGAAGGCAAACCCAUGGUCACAGCAGGCCAUUUAGAGACUGAGUGGGCGGGGCACUUACCAUCCCUUCC; result = 0.266
Strand = GCCAAGAGUUCUUUAGGUGCCUCCUGUCUUAUGGCGUUGCAGGCCAGGUUAUGCCUCAUGCUGACUUGCAGAGUUCAUGGAAUGUAACUAUAUCAUCCUUUAUCCCUGAG; result = 0.998
Strand = UUUUUGUGAAAUUAUCUUGAUUUACAACGUGGUAUUGUAUUUUACAGAGUUCAUGAAGCCCCAAACAAUUUUUAUUUUUGUAAAACAAUUGUAUGUUUAAUCUGUUUCUG; result = 0.473
Strand = UCUCCCCUGGGACCAGCUGGAGGGCCACAUGCACACACAGCCUAGCUGCCCCCAGGGAGCUCUGCUGCCCUUGCUGGCCCUGCCCUUCCCACAGGUGAGCAGGGCUCCUG; result = 1.32

Block 4
Target: RING finger protein unkempt homolog, zinc fingers 1-6, GST-SBP tag (UNK, Homo sapiens, UniProt Q9C0B0, residues 30-357)
Sequence of UniProt Q9C0B0 (30-357, looked up): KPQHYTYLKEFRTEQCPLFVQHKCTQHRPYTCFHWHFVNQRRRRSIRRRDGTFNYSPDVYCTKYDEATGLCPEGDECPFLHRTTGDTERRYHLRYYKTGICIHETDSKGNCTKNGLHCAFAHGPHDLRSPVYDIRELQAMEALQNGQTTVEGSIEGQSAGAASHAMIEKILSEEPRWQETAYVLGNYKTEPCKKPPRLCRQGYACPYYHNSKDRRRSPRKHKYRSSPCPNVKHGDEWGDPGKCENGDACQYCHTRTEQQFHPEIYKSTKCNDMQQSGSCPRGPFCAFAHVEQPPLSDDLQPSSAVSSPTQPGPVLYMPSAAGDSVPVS
Technique: RNA Bind-n-Seq
Molecule type: RNA
Matrix: in vitro
Concentration: not given
Setting: RNA with constant flanks, human and mouse sites, ends assumed
Baseline: input RNA pool
Reading: higher = stronger binding
Endpoint: bound/input enrichment
Constant ends, left off below: GGGAGUUCUACAGUCCGACGAUC … CAACAGAGGAUUGAGCAUCA
Strand = GGUCGGAGGGACUUUGUCUACCCUUCCUCAACCCGAGACCCUAGUGCCUCUAACGGAGGGGGCAGCCCAGCCAGGAGGGAAGAGAAGAAGAGAAAGGCCGCCAGGCUCAAGUUUGACUUC; result = 1.11 ratio
Strand = UUACGUUUAAGACCUAGCCUUUGAUGUGGUAUUUAUGUAACGUUUGUACAGUGAUUUACUCUUAGUUUGUUACCUUUAUCACCUGUACAAUUGCACUAUUUAAAUGUACUCCUUCUUAAU; result = 1.34 ratio
Strand = GAAGAUGAAGCUAAUGUAGCCUGGAAGUAUUACAAAGUCCCAAAGAAAAAAGAUGUAGAAUUUUUACCACCUCAACUUCCAAAUGAUAAAUUCAAGGAUGAUCCAGUUGGACCUUUUGGA; result = 0.386 ratio
Strand = UGAAGAUUCCAGAUGCUAAACAUGUAUUUACCACAUUUUAUGCUAAAACAAAAUCACUGUUAGUUAAUCCAGUGCUCUUUCCAAACCGUGAAGACUAUAUCCAUCUAAUGGGUUAUGACA; result = 0.38 ratio
Strand = AAGAAAACAUACCAAUAUUGUUGCACAGACUAUUCCUCAGAUGUUAGCAAUGAUGGUUGAUUUGGAAGAAGAUGAGGACUGGGCAAAUGCAGAUGAACUAGAAGAUGAUGAUUUUGACAG; result = 0.478 ratio
Strand = GUGGGAGUUCUCCUACAGGAUCAUGAUGUUCGGCAGAGUGAAUUUCAGCAACUUCCGUACCAUAGGAUUUUUAUCAUGCUGCUGUUGGAGCUCAAUGCACCCGAGCAUGUGUUGGAAACC; result = 5.41 ratio

Some of these lines once more (block 2):
Strand = CGGGGTTAAGTTTGCGTAGTGGGTGGCTTGCAGCAG; result = 4660 a.u.
Strand = TTTCCAACCTTCTGGCACGATAGTCTATGTCAAAAT; result = 6600 a.u.
Strand = AAATTACTAAGTTTTCACGTGGGCTACCCCGTATGA; result = 15900 a.u.
Strand = CGGGGTTAAGTTTGGCGGGTGGGTGGCTTGCAGCAG; result = 5130 a.u.
Strand = CGTCCTAGCGATTGAAAAGTGGGTGCCATGAGGAAG; result = 6470 a.u.
